Published values from different studies.
Each line is one published result; not all experiments were run side by side.
Organism: Pseudomonas aeruginosa

For CC(C)=CCc1cc2c(cc1O)OC[C@H]1c3ccc(O)c(CC=C(C)C)c3O[C@@H]21, the MIC was 128 µg/mL (ATCC 10145).
COc1ccc2ccc3c(c2c1)C=[N+]1C2CCCCC2[N+]2=Cc4cccc(F)c4[O][Au-]21[O]3.F[P-](F)(F)(F)(F)F (stereo not shown) has an MIC of > 20 µM (bacterial growth, broth microdilution; carbapenem-resistant; 24 h).
The MIC of CC(=O)N[C@@H](Cc1c[nH]c2ccccc12)C(=O)N[C@@H](Cc1c[nH]c2ccccc12)C(=O)N[C@@H](Cc1c[nH]c2ccccc12)C(=O)N[C@@H](Cc1c[nH]c2ccccc12)C(=O)NCCCC[C@@H]1NC(=O)[C@H](CCCNC(=N)N)NC(=O)[C@H](CCCNC(=N)N)NC(=O)[C@H](CCCNC(=N)N)NC(=O)[C@H](CCCNC(=N)N)NC(=O)[C@H](CCCNC(=N)N)NC1=O is reported as > 212 µg/mL (broth microdilution; PAO1; 37 °C).
CO[C@@H](C(N)=O)[C@H](NC(=O)c1ccc(NC(=O)c2ccc([N+](=O)[O-])cc2)cc1)C(=O)Nc1ccc(C(=O)Nc2ccc(C(=O)Nc3ccc(C(=O)O)cc3)c(O)c2OC(C)C)cc1 has an MIC of 0.5 µg/mL (PA14 ΔmexAB).
With N#Cc1ccc2cccc(O)c2n1 the MIC was > 1500 µM (microbial growth, agar dilution; ATCC27853).
For CC(C)C[C@H](NC(=O)[C@H](CC(N)=O)NC(=O)[C@H](CCCNC(=N)N)NC(=O)[C@@H](CC(C)C)NC(=O)[C@H](Cc1ccccc1)NC(=O)[C@H](CC(=O)O)NC(=O)[C@H](CCCCN)NC(=O)[C@@H](CC(C)C)NC(=O)[C@H](CCCNC(=N)N)NC(=O)[C@H](CCC(N)=O)NC(=O)[C@@H](NC(=O)[C@@H](CC(C)C)NC(=O)[C@H](CCCNC(=N)N)NC(=O)[C@H](CCCCN)NC(=O)[C@H](Cc1ccc(C(F)(F)F)cc1)NC(=O)CN)C(C)C)C(=O)N[C@H](C(N)=O)C(C)C, the MIC was 25 µM (broth microdilution; PAO1).
With COc1ccc2ccc3c(c2c1)C=[N+]1C2CCCCC2[N+]2=Cc4ccc(C)cc4[O][Au-]21[O]3.F[P-](F)(F)(F)(F)F (stereo not shown) the MIC was 10 µM (bacterial growth, broth microdilution; carbapenem-resistant; 24 h).
For CC[C@@H](C)[C@@H](NC(=O)[C@@H](C)NC(=O)[C@@H](CCCCN)NC(=O)[C@@H](CC(C)C)NC(=O)[C@@H](CC(C)C)NC(=O)[C@H](NC(=O)[C@@H](CCCCN)NC(=O)[C@@H](CC(C)C)NC(=O)[C@@H](CCCCN)NC(=O)[C@@H](CCCCN)NC(=O)[C@@H](CCCCN)NC(=O)[C@@H](CCCCN)NC(=O)[C@@H](C)NC(=O)[C@@H](CCCCN)NC(=O)[C@@H](CO)NC(=O)[C@@H](Cc1ccccc1)NC(=O)[C@H](NC(=O)[C@@H](CCCCN)NC(=O)[C@@H](CC(C)C)NC(=O)[C@@H](Cc1ccccc1)NC(=O)[C@@H](CO)NC(=O)[C@@H](CCCCN)NC(=O)[C@@H](Cc1c[nH]c2ccccc12)NC(=O)[C@@H](CCCCN)NC(C)=O)[C@H](C)O)[C@H](C)O)C(=O)N[C@H](CO)C(=O)N[C@H](CCCCN)C(N)=O, the MIC was 2.5 µM (broth microdilution; PA14; 24 h, 37 °C).
With c1ccc(CN2CCOCCOCCN(CCCCCCCCCCN3CCOCCOCCN(CCCCCCCCCCN4CCOCCOCCN(Cc5ccccc5)CCOCCOCC4)CCOCCOCC3)CCOCCOCC2)cc1 the MIC was > 100 µM (microbial growth).
With CC1(C)S[C@@H]2[C@H](NC(=O)[C@H](NC(=O)C3=C(O)C(c4ccccc4F)NC3=O)c3ccccc3)C(=O)N2[C@H]1C(=O)O (stereo partly shown) the MIC was 25 µg/mL (broth microdilution; PAO1, Mueller-Hinton broth).

For quick reference, copied from above:
With COc1ccc2ccc3c(c2c1)C=[N+]1C2CCCCC2[N+]2=Cc4ccc(C)cc4[O][Au-]21[O]3.F[P-](F)(F)(F)(F)F (stereo not shown) the MIC was 10 µM (bacterial growth, broth microdilution; carbapenem-resistant; 24 h).
